# Measurements from different studies.
# Compare with care: the assays were run in different laboratories. “And” joins repeats or separate records; there may be more than shown. Numbers after ± are the reported error.
# rep main protease: Replicase polyprotein 1ab, main protease (rep, Severe acute respiratory syndrome coronavirus 2, UniProt P0DTD1)
SMILES,target,test,test system,setting,scale,endpoint,result
O=C(O)C[C@H](NC(=O)c1ccccc1[Se][Se]c1ccccc1C(=O)N[C@@H](CC(=O)O)C(=O)O)C(=O)O,rep main protease,"enzyme activity, inhibitor",,"40 µM, mean of repeats",,inhibition,98.1%
CC(=O)N[C@@H](Cc1ccc(O)cc1)C(=O)N[C@@H](CC(=O)O)C(=O)NCCC(=O)N[C@@H](Cc1ccccc1)C(=O)N[C@@H](Cc1ccc(O)cc1)C(=O)NCCC(=O)N[C@@H](Cc1ccc(O)cc1)C(=O)N[C@H](C(=O)N[C@H](C(=O)N[C@@H](Cc1ccccc1)C(=O)N[C@@H](Cc1c[nH]cn1)C(=O)N[C@H](C(=O)N[C@@H](C)C(=O)N[C@H](C(N)=O)[C@@H](C)O)C(C)C)[C@@H](C)O)C(C)C,rep main protease,"binding, SPR",,,,koff,0.00379 s⁻¹
COc1cc(C(=O)N(CCC(=O)N2CCNCC2)Cc2cccc(Cl)c2)cc(OC)c1OC,"Replicase polyprotein 1ab, nsp3 macrodomain (rep, Severe acute respiratory syndrome coronavirus 2, UniProt P0DTD1)","thermal stabilisation, differential scanning fluorimetry",,"300 µM, SARS-CoV-2",,ΔTm,0.22 ± 0.08 °C
CC1CC(c2ccc(C(=O)O)o2)=NN1c1ccc(C#N)c(Cl)c1 (centres unmarked),"Replicase polyprotein 1ab, nsp14 methyltransferase (rep, Severe acute respiratory syndrome coronavirus 2, UniProt P0DTD1)",,,,,lipophilic ligand efficiency,1.4
O=C(CSc1[nH]c2ccccc2c1SCC(=O)Nc1ccc(Cl)c(Cl)c1)Nc1ccc(Cl)c(Cl)c1,"Replicase polyprotein 1ab, nsp12 with nsp14/nsp10 (rep, Severe acute respiratory syndrome coronavirus 2, UniProt P0DTD1)","SARS-CoV-2 RdRp activity, CoV-Gluc reporter",HEK293T,,relative to: with nsp14/nsp10 over nsp12 alone,EC50 ratio,1.18
O=C(CCc1ccccc1)NOC(=O)OCc1ccccc1,rep main protease,thermal shift,,"20 µM, 2 h",,melting temperature,50.8 °C
CC[C@@H](C)[C@@H](C(=O)OC)n1[se]c2ccccc2c1=O,rep main protease,"enzyme activity, inhibitor",,40 µM,,inhibition,103%
COc1cc2c(cc1OC)-c1c(OC)c(OC)cc3c1[C@H](C2)N(C)CC3,rep main protease,"STD NMR, item: proton H3–14",,,relative to: H-8 signal,relative STD saturation,38%
C[C@](C(=O)NC1CCC(F)(F)CC1)(c1cncnc1)N(C(=O)[C@H](F)Cl)c1ccc(OC(F)(F)F)cc1,rep main protease,enzyme activity,,25 µM,,inhibition,99.7% and 98.2%
C#Cc1cccc(CCNC(=O)[C@@H](c2cncnc2)N(C(=O)[C@H](F)Cl)c2ccc(S(F)(F)(F)(F)F)cc2)c1,rep main protease,"protease labelling, in-gel fluorescence",,lowest Mpro concentration detected,,detection limit,10 nM
CNC(=O)C[C@H](Cc1ccc(F)cc1)NC(=O)[C@@H](Cc1ccc(Cl)cc1Cl)NC(=O)[C@H](N)Cc1ccccc1C#N,rep main protease,3CL protease activity,,1 µM,,remaining activity,13.7%
N[C@H](C[Se][Se]C[C@@H](N)C(=O)O)C(=O)O,rep main protease,"enzyme activity, inhibitor",,"40 µM, mean of repeats",,inhibition,54.5%
CNC(=O)C[C@H](Cc1ccc(F)cc1)NC(=O)[C@@H](Cc1ccc(Cl)cc1Cl)NC(=O)[C@H](N)Cc1ccccc1[N+](=O)[O-],rep main protease,3CL protease activity,,0.04576 µM,,remaining activity,73.4%
CCn1ccc(-c2cc(C(C)NC(=O)c3cc(N4CC5CC4CN5C)ccc3C)c3ccccc3n2)n1 (centres unmarked),"Replicase polyprotein 1ab, papain-like protease (rep, Severe acute respiratory syndrome coronavirus 2, UniProt P0DTD1)","reporter gene, cell-based",,,,GFP/mCherry signal ratio,80.8 and 86.5 and 96.3 and 4.68 and 41.8 and 70

# Repeated from above:
SMILES,target,test,test system,setting,scale,endpoint,result
CNC(=O)C[C@H](Cc1ccc(F)cc1)NC(=O)[C@@H](Cc1ccc(Cl)cc1Cl)NC(=O)[C@H](N)Cc1ccccc1[N+](=O)[O-],rep main protease,3CL protease activity,,0.04576 µM,,remaining activity,73.4%
CC[C@@H](C)[C@@H](C(=O)OC)n1[se]c2ccccc2c1=O,rep main protease,"enzyme activity, inhibitor",,40 µM,,inhibition,103%
